Published values gathered from unrelated publications.
Numbered parts are unrelated; each lists some results of a single study. Changes are numbered by the printed parent chain.

Block 1
Target: RNA binding protein fox-1 homolog 2, RRM domain, GST-SBP tag (RBFOX2, Homo sapiens, UniProt O43251-10, residues 100-194)
Technique: RNA Bind-n-Seq
Form: RNA
Matrix: in vitro
Concentration: 365 nM
Setting: natural RNA segment, single round, ends assumed
Baseline: no-protein control
Direction: higher = stronger binding
Shared flanks, not repeated: GGGAGUUCUACAGUCCGACGAUC … UGGAAUUCUCGGGUGCCAA
Residues (chain): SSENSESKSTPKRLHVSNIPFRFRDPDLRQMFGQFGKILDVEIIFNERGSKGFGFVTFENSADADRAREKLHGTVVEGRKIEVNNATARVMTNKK
Sequence	RBNS enrichment (R)
GCCCCUGUCUUCCUUCUCAUGACCAUUUCCCCCUUUCUGUCUGGCUUGCAUUAUUGAUUUCCAGGACCAAGUCCUGGCUUCCUCCUGCCUUCCUGAGAUGAUGUUCUGCU	1.06
UGCAGGAUUAAGUUACAAUUAUCUUCUCAGUGAAGGUCAUUUGUGAUGGGGUCUAAUUCUUAUUACUUCAACAAAUAUUGUUUUGACUUGGGGGGAGGGGCUAUAACCCU	0.677
UAAAAUGUGUCUAUACUUAGCAUUGUAAGGAAAAACAUCAUUACCAUAGAUAUUUAUUAUAUUUGAAAUCUAAUAUGAAUUGUUCAGAAUUUGAAACAUAAAUUUAAUAU	2.88
ACAAAACAUAUAAAAGUAACAGAAUCUAGCUGGGCUAUGGUGGGACACAGCUUUAAUCUCAGGAACCAGAGACUGGUUGGUUUUUUGUUGUUUGUUGUUUCUUUUGGUUG	0.497
CCCAGCCGGUUUGGAUUACAGGCCUGUGCUGGAACAUCAUCUCAGUUGGCCACCUUCCUGGCAGGCUGUAGACCUGACAUUUUGAGACAAGCCUAGAGGAGUCAGGAGCA	2.53
CAAGCUCAUACAGGGAACCACACCCAACACUUAGACAUGCGAACAAGCAGCCCCCAGCGAGGGUCUCCUUCGCCUUCAACCUCCUAGUGUCUGUUAGCAUCUUCCUUUUC	0.439
UGGCACUGGGAACAUCCUACGCAGGGACAACCUCCAAAAUUAAUGGGUGAACAUGGUUUUUUUGGAAUCAACUGAGAUAAUGCUAUUUCAAUAGCGGCUGGCUUUUUGUG	0.799
UGCCAGACCAAUGAUACCCAGAGCUACCUGCCGCCAACUUGUUGAGAUGUGUGUUUGACUGUGAGAGAGUGUGUGUUUGUGUGUGUGUUUUGCCAUGAACUGUGGCCCCA	1.71
AGGAGAGCAUCCAGAUCCCUGGGCAGAGGCUCUACAUUCUUGGCUUUAGAGGUGGUGGCAGCGGCAGCAGGUCAGAGCCACUUCUGGCGGUUUCCCUCCCCUUUUUAGUG	0.183
UGUAUUUGUAGUUGUUUCUUUCAAAAACAAUUUUUAAAAAUUGGAAAGGGAUAUAUAUGAGAAGUGAUUACUCCAAAGAAUAUUAAUCUUAAAAGAAAGCAGUAUAGAUG	0.618
UGCUGUAUUUAUGUGCUUCAUAAGGCCCUGCUCUGUCUGCUAAAGCUAUGAAGAAAGAUGUGCAGAGACUGGGGUGGAGACUAAGCCAAAGAGGAGCUGCCUAGCCUGGC	0.621
UGGUUUGAAGAUCUGCGGGGAAAAAUAAGUGUGCACCUGAGACCUUCAGUUAGUCUUUUAUUUAUUUAGAAUAAAAAAUAGUUUGAUAACCUACCAGAGUUAGUGCUUCU	1.9

Block 2
Target: Transcription factor SOX-2, HMG box (Sox2, Mus musculus, UniProt P48432, residues 41-119)
Chain of UniProt P48432 (41-119, looked up): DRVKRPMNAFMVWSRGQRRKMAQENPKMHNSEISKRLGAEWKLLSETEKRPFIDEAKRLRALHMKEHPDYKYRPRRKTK
Technique: Spec-seq
Form: double-stranded DNA, one strand shown
Matrix: in vitro
Concentration: not given
Setting: whole probe, mean of replicates
Baseline: not given
Direction: lower = stronger binding
Shared flanks, not repeated: GAGTCGTCTCGTCAGCAC … CCGTAGAGCACTCAGGTC
Sequence	relative binding energy
CATCCTC	0.675 ln ratio
CATGTGT	0.205 ln ratio
GCGGGTT	1.66 ln ratio
AGCAGTT	0.623 ln ratio
CATACTT	-0.0952 ln ratio
CATTTGG	0.148 ln ratio
CATGAGT	0.368 ln ratio
CATCATC	0.436 ln ratio
GCTAGTT	0.892 ln ratio
CATTGTT	-2.77 ln ratio
TAGTGTT	-0.591 ln ratio
CATCCCA	0.761 ln ratio
CGGTGTT	0.801 ln ratio
CATTGAT	-1.66 ln ratio
GGCAGTT	1.06 ln ratio
TGGCGTT	1.15 ln ratio
CATACTA	-0.188 ln ratio

Block 3
Target: Fragile X messenger ribonucleoprotein 1, C-terminal low-complexity region (Fmr1, Mus musculus, UniProt P35922)
Technique: RNA Bind-n-Seq
Form: RNA
Matrix: in vitro
Concentration: 200 nM
Setting: whole 134-nt RNA, ends assumed
Together with: 150 mM KCl
Baseline: input library
Direction: higher = stronger binding
Shared flanks, not repeated: GGGAGUUCUACAGUCCGACGAUC … UGGAAUUCUCGGGUGUCAAGG
Sequence	log2 enrichment
CCUGUGCUACACAUCGUAUGUACCGAAUCGGGGUUUGGGGAAAAAGGGGAAAAAAAGGGGAAAGUAUUAUGUUACGCCGUUCGGAUCUGC	-0.0473
GUCCUGUGCUACACAUCGUAUGUACCGAAUCGGGGUGGGGAAAAAGGGGUUUUUGGGGAAAGUAUUAUGUUACGCCGUUCGGAUCUGCAC	0.58
UGUGCUACACAUCGUAUGUACCGAAUCGGGGUUUUUGGGGAAAAAAAGGGGUUUUUUUGGGGAAAGUAUUAUGUUACGCCGUUCGGAUCU	0.424
ACCAUGCAGGUGGGCAUCUUUGGGAAGUGGGGCAAGCGGGGGAUAGGGAGGGGGGUAACACUUUGGGAACAGGUGGUCCCAGGUCGUUUC	0.873
GCAGGAAGUAAAAACAAAUGGAAAUGCUUCGGAUAGUGGCAGGGGUGGGGGUUGCUAAGGAAAGGGUGGGAUGGGAGUGGGUAAAAAAUU	-0.189
UCUUUAUUUGAGCCAGUCUUGCAAGGUUAACUUCUCACUGGGCCUAGUGUGGUGCCCAGGUUUUUGCCUUGCUUCACUUCUGUCUCUACA	-1.08
GUCCUGUGCUACACAUCGUAUGUACCGAAUCGGGGAAAAAAAGGGGAAAGGGGUGGGGAAAGUAUUAUGUUACGCCGUUCGGAUCUGCAC	0.396
CUCAAGUCCUGUGCUACACAUCGUAUGUACCGAAUCGGUUUGGUUUGGGUUUGGAAAGUAUUAUGUUACGCCGUUCGGAUCUGCACUUCC	-0.266
UCCUGUGCUACACAUCGUAUGUACCGAAUCGGGAAAAAAAGGGAAAAAAAGGGUUUGGGAAAGUAUUAUGUUACGCCGUUCGGAUCUGCA	-0.21
CACAGACAACACGCACCCACAGAGACACAGAGGGAAGGGGUUGGGAUGGGGACAGGGUGCACAGCAGGGCGGGGUAGGACCCCAGCCCCU	1.24
UGGGAGGUGGAUUUUGUUUAUUUUUUUAGCUCAUUUCCAGGGAUGGGAAUUUUUUUUUAAUAUGUGUCAUGAAUAAAGUUGUUUUUGAAA	0.0193
AAGUCCUGUGCUACACAUCGUAUGUACCGAAUCGGUUUGGGGUUUGGGGUUUGGGGAAAGUAUUAUGUUACGCCGUUCGGAUCUGCACUU	-0.0148
CAAGUCCUGUGCUACACAUCGUAUGUACCGAAUCGGGUUUUUUUGGGAGGGAGGGAAAGUAUUAUGUUACGCCGUUCGGAUCUGCACUUC	0.995
CCUGUGCUACACAUCGUAUGUACCGAAUCGGGGAAAAAAGGGAAAAAAGGGAAAAAAGGGGAAAGUAUUAUGUUACGCCGUUCGGAUCUG	-0.697

Block 4
Target: ABI1, truncated, D143A, DHFR fusion (Arabidopsis thaliana)
Technique: DHFR PCA, deep sequencing
Matrix: yeast
Setting: methotrexate growth selection, single substitutions
Together with: (+)-ABA 2500 µM
Baseline: wild-type fitted maximum
Direction: higher = stronger binding
Starting sequence: PYL1, truncated, DHFR fusion (Arabidopsis thaliana); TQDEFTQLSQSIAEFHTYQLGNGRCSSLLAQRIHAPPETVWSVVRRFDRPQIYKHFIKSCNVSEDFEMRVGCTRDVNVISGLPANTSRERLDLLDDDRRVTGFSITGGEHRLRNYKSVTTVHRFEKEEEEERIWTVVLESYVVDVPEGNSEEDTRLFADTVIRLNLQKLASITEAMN
Change	relative binding score [%]
V100A	107
Y141Q	-5.52
G71C	77.6
I79E	84.8
T1S	95.9
E152N	92.9
S87F	5.11
D97E	97.7
V62M	95.8
I172Y	95.4
K116E	89.8
S11N	93.2
S171R	93.5
E174W	78.6

Some of these lines once more (block 3):
Sequence	log2 enrichment
UCUUUAUUUGAGCCAGUCUUGCAAGGUUAACUUCUCACUGGGCCUAGUGUGGUGCCCAGGUUUUUGCCUUGCUUCACUUCUGUCUCUACA	-1.08
GUCCUGUGCUACACAUCGUAUGUACCGAAUCGGGGAAAAAAAGGGGAAAGGGGUGGGGAAAGUAUUAUGUUACGCCGUUCGGAUCUGCAC	0.396
CUCAAGUCCUGUGCUACACAUCGUAUGUACCGAAUCGGUUUGGUUUGGGUUUGGAAAGUAUUAUGUUACGCCGUUCGGAUCUGCACUUCC	-0.266
UCCUGUGCUACACAUCGUAUGUACCGAAUCGGGAAAAAAAGGGAAAAAAAGGGUUUGGGAAAGUAUUAUGUUACGCCGUUCGGAUCUGCA	-0.21
CACAGACAACACGCACCCACAGAGACACAGAGGGAAGGGGUUGGGAUGGGGACAGGGUGCACAGCAGGGCGGGGUAGGACCCCAGCCCCU	1.24
UGGGAGGUGGAUUUUGUUUAUUUUUUUAGCUCAUUUCCAGGGAUGGGAAUUUUUUUUUAAUAUGUGUCAUGAAUAAAGUUGUUUUUGAAA	0.0193
AAGUCCUGUGCUACACAUCGUAUGUACCGAAUCGGUUUGGGGUUUGGGGUUUGGGGAAAGUAUUAUGUUACGCCGUUCGGAUCUGCACUU	-0.0148
